Measured values gathered from unrelated publications.
± gives the spread as reported.
Aryl hydrocarbon receptor: Aryl hydrocarbon receptor (Danio rerio, UniProt Q9YGV3)

Compound	target	assay	system	setting	scale	measurement	result
Nc1nnc(-c2ccccc2O)cc1N1CCN(Cc2ccc(OCCOCCNc3cccc4c3C(=O)N(C3CCC(=O)NC3=O)C4=O)c(F)c2)CC1 (stereo not drawn)	SWI/SNF-related matrix-associated actin-dependent regulator of chromatin subfamily A member 2 (SMARCA2, Homo sapiens, UniProt P51531)	immunohistochemistry	mouse, NCI-H1568 xenograft, tumour	dose not given	reference: vehicle	reduction in positive cells	51%
CCCCCCCC/C=C\CCCCCCCC(=O)NCCc1ccc(O)c(O)c1	Transient receptor potential cation channel subfamily V member 1 (Trpv1, Mus musculus, UniProt Q704Y3, D510E)	ion current, agonist, whole-cell patch clamp	–	D510E	reference: 3 mM 2-APB	maximal open probability	0.67 ± 0.08
CCCCC[C@H](O)/C=C/[C@H]1[C@H](O)CC(=O)[C@@H]1C/C=C\CCCC(=O)O	Prostaglandin E2 receptor EP1 subtype (PTGER1, Homo sapiens, UniProt P34995, M117A)	IP1 accumulation, agonist	AD293	1 h, EP1 M117A mutant	–	Emax	78.9 ± 7.62%
O=C(O)C1CCCNC1 (stereo not drawn)	Sodium- and chloride-dependent taurine transporter (SLC6A6, Homo sapiens, UniProt P31641, Y138A)	binding, microscale thermophoresis	–	15.6 µM, room temperature, added: 50 nM labelled protein	higher = more binding	normalised MST signal	0.433
Cc1ccc(NC(=O)/C=C/c2cccs2)cc1	Nicotinic acetylcholine receptor alpha9/alpha10 (Rattus norvegicus, UniProt P43144+Q9JLB5)	positive allosteric modulator	rat α9α10 expressing cells	added: ACh 10 µM	–	potentiation EC50	inactive
CC(C)[C@H](NC(=O)c1cc(-c2cnn3cc(-c4ccc(OCCN5CCCCC5)cc4)cnc23)cs1)C(F)(F)F	PLK1 (human)	radiometric kinase	–	15 nM	reference: PLK1 over ULK1	relative inhibition	0.0114
O=C(CCCCCCC(=O)Nc1ccccc1)NO	Histone deacetylase 8 (HDAC8, Homo sapiens, UniProt Q9BY41)	ITC	Tris-HCl buffer	concentration not given, 278 K	–	binding stoichiometry	0.8
CN1C(=O)/C(=C2\Nc3ccccc3\C2=N/O)c2ccc(Br)cc21	Aryl hydrocarbon receptor	reporter gene, agonist, luciferase reporter	ZF-4	0.032 µM	reference: vehicle control	fold change	7.11
Nc1cccc(C(=O)Nc2ccc3[nH]ccc3c2)c1	Alpha-synuclein (SNCA, Homo sapiens, UniProt P37840)	ThT kinetics	–	concentration not given, added: SNCA 2 µM	–	fibril formation	inhibited
Cc1cccc2c1ccc1cc(C(C)C)ccc12	Aryl hydrocarbon receptor	reporter gene, agonist, luciferase reporter	ZF-4	30000 µM	reference: vehicle control	fold change	0.585
Nc1cccc2c1C(=O)N(C1CCC(=O)NC1=O)C2=O (stereo not drawn)	Sal-like protein 4 (SALL4, Homo sapiens, UniProt Q9UJQ4)	degrader	C33A	–	–	Dmax	68 ± 6%
C[C@@H]1CCN(c2nccc(-c3cnn4ncccc34)n2)C1	Tyrosine-protein kinase ABL1 (ABL1, Homo sapiens, UniProt P00519, H396P)	KINOMEscan	–	1 µM	–	remaining binding	70%
COC1=C(OC)C(=O)C(CC=C(C)C)=C(C)C1=O	FSP1 F354A mutant	substrate	–	added: 100 µM co-substrate	–	Km	26.9 ± 10.6 µM
CCCCCCCCCCCCC/C=C/[C@@H](O)[C@H](CO)NC(=O)CCCCCCCCCCCCCCCCCCCCCCC	Protein SET (SET, Homo sapiens, UniProt Q01105)	lipid binding, GFP pull-down LC-MS/MS	A549 overexpressing GFP-tagged protein	–	reference: eluate plus flow-through	lipid fraction bound	5.3%
Cc1ccc(N2CC(C(N)=O)CC2=O)cc1 (stereo not drawn)	Huntingtin (HTT, Homo sapiens, UniProt P42858)	binding, affinity selection mass spectrometry	–	–	reference: other proteins in batch	log fold enrichment	-0.0404

Some of these lines once more:
Compound	target	assay	system	setting	scale	measurement	result
Nc1cccc2c1C(=O)N(C1CCC(=O)NC1=O)C2=O (stereo not drawn)	Sal-like protein 4 (SALL4, Homo sapiens, UniProt Q9UJQ4)	degrader	C33A	–	–	Dmax	68 ± 6%
C[C@@H]1CCN(c2nccc(-c3cnn4ncccc34)n2)C1	Tyrosine-protein kinase ABL1 (ABL1, Homo sapiens, UniProt P00519, H396P)	KINOMEscan	–	1 µM	–	remaining binding	70%
